Experimental data pooled from the literature.
Numbered parts are unrelated; each lists some results of a single study. Positions count from the first letter of the parent shown.

Set 1 — technique: DHFR PCA, deep sequencing; medium: yeast; added: (+)-ABA 1.4 µM; relative to: wild-type fitted maximum; direction: higher = stronger binding
Target: ABI1, truncated, D143A, DHFR fusion (Arabidopsis thaliana)
Notes: methotrexate growth selection, single substitutions
Starting sequence: PYL1, truncated, DHFR fusion (Arabidopsis thaliana); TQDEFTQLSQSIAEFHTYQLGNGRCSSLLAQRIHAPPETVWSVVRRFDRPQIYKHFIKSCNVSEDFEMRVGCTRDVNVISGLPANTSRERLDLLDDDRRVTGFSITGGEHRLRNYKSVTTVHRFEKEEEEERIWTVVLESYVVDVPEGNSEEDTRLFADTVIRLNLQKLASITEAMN
`A35F`: “relative binding score” -33.4%.
For `K58G`, “relative binding score” read 5.24%.
`L20V` — result for “relative binding score”: 69.6%.
For `W41T`, “relative binding score” read -3.54%.
`D159W`: “relative binding score” -9.44%.
For `R163Q`, “relative binding score” read 43.5%.
Under “relative binding score”, `L164R` is recorded as 57.2%.
`F5R`: “relative binding score” 45.5%.
Under “relative binding score”, `D153H` is recorded as -4.44%.
Under “relative binding score”, `A35S` is recorded as 11.7%.
Under “relative binding score”, `A84F` is recorded as 73.2%.
For `T17H`, “relative binding score” read 10.4%.
For `F56T`, “relative binding score” read -4.93%.
`L29N` — result for “relative binding score”: 25.6%.
`V44H` — result for “relative binding score”: -8.16%.
For `E89L`, “relative binding score” read -2.58%.
For `R123D`, “relative binding score” read 36.4%.
Under “relative binding score”, `A35H` is recorded as -23.5%.
For `T120C`, “relative binding score” read -2.55%.
`D153W` — result for “relative binding score”: 0.778%.
Under “relative binding score”, `R113S` is recorded as 45.9%.
`V43M`: “relative binding score” 14.9%.
`G23C` — result for “relative binding score”: 16.3%.
`E109T`: “relative binding score” 35.4%.

Set 2 — technique: RNA Bind-n-Seq; molecule type: RNA; medium: in vitro; concentration: 365 nM; relative to: no-protein control; direction: higher = stronger binding
Target: RNA binding protein fox-1 homolog 2, RRM domain, GST-SBP tag (RBFOX2, Homo sapiens, UniProt O43251-10, residues 100-194)
Notes: natural RNA segment, single round, ends assumed
Residues (chain): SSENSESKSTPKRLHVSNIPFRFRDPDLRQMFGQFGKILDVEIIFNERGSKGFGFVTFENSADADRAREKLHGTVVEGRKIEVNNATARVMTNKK
Under “RBNS enrichment (R)”, `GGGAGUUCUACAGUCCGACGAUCGUCUUUGAUUGGAGAGAGUAACUUUUUAAUUCUGUUGUUUUGCAGUUUGGCUCUGUAGGAGUGAGUGGCGAUUCAAAGAUGCCGGCGUCCCGCAGUGUGCGGUUCGUGCCUGGAAUUCUCGGGUGCCAA` is recorded as 0.938.
For `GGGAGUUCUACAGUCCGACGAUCGCUUCUCGUUCUUAGCAGGGAUGAACAGGCACACUGAGGUGAACAUCUGGCCCAAAUGAAGCAUACCCUGUCACGCCCUUGGGAAAACAAAUAGGACCGAACAAAGCUACUGGAAUUCUCGGGUGCCAA`, “RBNS enrichment (R)” read 0.468.
`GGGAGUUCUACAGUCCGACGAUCGGCCAGUGUUCAGCAGGAUCAUGCCUUCUGUGUCUGGAAGAGGCGGCAGAGGCAACAGUGUUUAGGAUUUGGGUUAUCAUAAGGUGUUAAGAGUCCCUUGUUAAAGGGGCUGGAAUUCUCGGGUGCCAA` — result for “RBNS enrichment (R)”: 0.401.
`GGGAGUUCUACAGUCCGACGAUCCCAGCAGGAGAGCCAGCAGGGCAGCAGUAGAGGCCCCUCGUGGGCCCCUUUUCAUGUCCUGACCCAUGUCCUGCCAGUGUUCUUUCCAUGCUUUAAGUUGACUCUUUCUUUGGAAUUCUCGGGUGCCAA`: “RBNS enrichment (R)” 0.161.
For `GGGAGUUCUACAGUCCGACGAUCAGCAAUAGUUUGGGCAGUUUUAGUUGUUUUUAGUGAGCAUGUUGUAGUCAUGACUGCAAAGAGAGAGAAUAAACUGCCCGCUCAGAAGAUAUGUAAUUUGUAUUGUUGUAUGGAAUUCUCGGGUGCCAA`, “RBNS enrichment (R)” read 2.94.
`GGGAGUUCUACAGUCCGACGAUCGUAUGGUGUGGUGUUUGUAGGCUGUGGGGUCUGGCUGUGUGGCCAAGGUGAAUAGCACAGGUUAGGGUGUGUGCCACACCCCAUGCACCUCAGGGCCAAGCGGGGGCGUGUGGAAUUCUCGGGUGCCAA` — result for “RBNS enrichment (R)”: 2.66.
Under “RBNS enrichment (R)”, `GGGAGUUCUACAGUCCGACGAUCAGCUAUUAGUAGUGGGUGGUCACCAUGACUGCCCAAGCUACAACAGCUGAUCUCUUCCCAGGUCACCUUUGUCCUUACUGCCCCCUUUUCCUUGAUUUUUUUUUCCUUUAUGGAAUUCUCGGGUGCCAA` is recorded as 0.349.
For `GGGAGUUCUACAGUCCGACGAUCGCUGCUCUAAGAAGGGGUCUCCUUUACCCUAAAGGCAGCUGGGCAGGGACAGGUGGGAGAAUGGGUGUAGGAGGCAGGCCCCAGGCUCUGCUUCUUGGUGACAGUUGGCCUGGAAUUCUCGGGUGCCAA`, “RBNS enrichment (R)” read 0.88.
`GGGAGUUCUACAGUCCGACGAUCGCUUAAGGUUUUGUUAAAGAAGACGAUAGGUAUGGCUGGAUUAUAUAGUCUUCAGGUUCACAUGAACUUGGCUGUAUUCUGAUAACAUUGAGACCGUUUUCCACCAAGUUUGGAAUUCUCGGGUGCCAA`: “RBNS enrichment (R)” 0.499.
`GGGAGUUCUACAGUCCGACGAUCGGUGGCAAAAACUUGCAAAAAGCAGAUAUACUUUUGCUAAUUUAAGUUGAAGUACUAUGAAUACAACCUGCUAAUCUUGAUCCCCAAAUCUGAGCCCUUCAGUUUCAUAAUGGAAUUCUCGGGUGCCAA`: “RBNS enrichment (R)” 0.257.
`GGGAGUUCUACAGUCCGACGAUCUAUAUGGACUAUAUUGUCUCCCUGUCCUUGUUCUGAUAAUGUACAGACUCAGUUUUUCUUAUGUUAUACAAAAUAUUAGCCAUGCAUUUAUUAUGUAAAGGACUACCCAUUGGAAUUCUCGGGUGCCAA` — result for “RBNS enrichment (R)”: 0.391.
`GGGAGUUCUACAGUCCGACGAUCAGCUGUAUUCGUACUCAAUUGUCAGUAUGGCACAGAUUACUGUAUUAAAAUAUUCUCCUUUCGUCUUCAUAUUUACCUUCUGAGGUAAUUUUUUAACUUAAUGUGUUACUUGGAAUUCUCGGGUGCCAA`: “RBNS enrichment (R)” 0.758.

Set 3 — technique: universal PBM; molecule type: double-stranded DNA, one strand shown; medium: in vitro; concentration: 600 nM; direction: higher = stronger binding
Target: Sal-like protein 4, full length isoform A (SALL4, Homo sapiens, UniProt Q9UJQ4, residues 1-1053)
Sequence of UniProt Q9UJQ4 (whole entry, looked up): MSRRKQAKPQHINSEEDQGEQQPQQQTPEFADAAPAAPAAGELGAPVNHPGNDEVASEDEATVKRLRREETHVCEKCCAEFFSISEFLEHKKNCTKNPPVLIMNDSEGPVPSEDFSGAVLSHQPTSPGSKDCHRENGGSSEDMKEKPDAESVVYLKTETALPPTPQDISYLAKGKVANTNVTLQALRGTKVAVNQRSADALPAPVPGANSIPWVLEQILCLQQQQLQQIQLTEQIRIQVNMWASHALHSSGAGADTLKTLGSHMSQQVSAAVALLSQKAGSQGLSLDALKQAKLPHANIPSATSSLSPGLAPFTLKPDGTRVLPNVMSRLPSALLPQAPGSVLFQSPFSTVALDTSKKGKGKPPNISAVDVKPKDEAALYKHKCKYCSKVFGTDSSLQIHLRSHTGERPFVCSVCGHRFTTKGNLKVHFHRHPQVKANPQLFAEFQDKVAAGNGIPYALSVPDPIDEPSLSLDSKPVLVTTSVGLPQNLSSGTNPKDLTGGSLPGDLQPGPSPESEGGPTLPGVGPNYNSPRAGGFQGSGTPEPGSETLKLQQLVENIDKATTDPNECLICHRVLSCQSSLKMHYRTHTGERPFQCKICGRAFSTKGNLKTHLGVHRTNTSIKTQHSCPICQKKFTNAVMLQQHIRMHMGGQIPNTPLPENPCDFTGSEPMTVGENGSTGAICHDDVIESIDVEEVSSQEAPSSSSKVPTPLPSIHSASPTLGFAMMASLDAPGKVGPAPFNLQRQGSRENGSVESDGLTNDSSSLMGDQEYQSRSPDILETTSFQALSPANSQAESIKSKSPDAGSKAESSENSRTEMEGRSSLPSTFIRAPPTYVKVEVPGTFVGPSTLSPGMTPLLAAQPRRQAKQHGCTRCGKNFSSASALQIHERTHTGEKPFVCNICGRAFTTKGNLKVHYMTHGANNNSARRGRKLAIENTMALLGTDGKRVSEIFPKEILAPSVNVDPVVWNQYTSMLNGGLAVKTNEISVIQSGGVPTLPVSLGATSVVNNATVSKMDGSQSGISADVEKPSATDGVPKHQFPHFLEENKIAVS
Notes: 8-mer, flanks averaged, mean of replicates
The E-score of `TCGTCAAA` is reported as 0.169.
`ATTCCGTA` gave an E-score of 0.0824.
The E-score of `ACACGCAC` is reported as -0.259.
`AATTGTAC` has an E-score of 0.219.
With `ATGGACGA` the E-score was 0.131.
The E-score of `CACAAGTG` is reported as -0.0655.
The E-score of `CATGTGTC` is reported as -0.121.
`TGCCCAAA` gave an E-score of -0.0476.
The E-score of `AATCTACG` is reported as 0.0174.
`CCGATTCG` gave an E-score of 0.0674.
`CTCGCTCC` has an E-score of -0.172.
The E-score of `TGGAGACA` is reported as -0.0126.
The E-score of `AAGTTACT` is reported as 0.14.
`CGGTATCA` has an E-score of 0.0773.
`CCGTGCGA` gave an E-score of -0.168.
`AGAGTGTG` has an E-score of -0.0393.
With `GAATGAAC` the E-score was 0.169.

Set 4 — technique: protein-binding microarray; molecule type: double-stranded DNA, one strand shown; medium: in vitro; concentration: 250 nM; notes: 60-bp whole probe; added: salmon DNA 0.4 mg/ml; relative to: random background probes; direction: higher = stronger binding; constant ends, left off below: GCCTAGCAC … GTCTTGATTCGCTTGACGCTGCTG
Target: Interferon regulatory factor 7, full length, phosphomimetic (IRF7, Homo sapiens, UniProt Q92985, residues 1-503, S101K/S471D/S472D/S475D/S476D/S477D/S483D/S484D/S487D)
Sequence of UniProt Q92985 (whole entry, unmodified, looked up): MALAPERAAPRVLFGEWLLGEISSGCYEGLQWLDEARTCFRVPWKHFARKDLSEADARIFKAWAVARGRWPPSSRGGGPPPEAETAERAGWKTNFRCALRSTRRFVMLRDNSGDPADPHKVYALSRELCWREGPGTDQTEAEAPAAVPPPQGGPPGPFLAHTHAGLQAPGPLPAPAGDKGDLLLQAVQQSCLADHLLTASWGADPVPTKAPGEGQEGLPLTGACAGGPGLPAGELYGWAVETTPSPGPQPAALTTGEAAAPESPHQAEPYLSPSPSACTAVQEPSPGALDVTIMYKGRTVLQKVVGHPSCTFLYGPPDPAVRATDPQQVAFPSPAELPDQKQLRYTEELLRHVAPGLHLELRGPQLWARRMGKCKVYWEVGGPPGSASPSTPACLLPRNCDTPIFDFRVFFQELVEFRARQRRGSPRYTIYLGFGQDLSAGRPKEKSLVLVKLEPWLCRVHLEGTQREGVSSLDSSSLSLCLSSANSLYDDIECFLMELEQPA
`GACGGTTTCGCTTCCGGGACGTGCTAG` gave a log fluorescence of 10.6 z-score.
`TCAACTGTGTGTTTGAGACTGTGCTAG` has a log fluorescence of -0.543 z-score.
The log fluorescence of `TTAGTTTTCCTTATCCTTTAGTGCTAG` is reported as 2.54 z-score.
For `TCATGATTACATATATGACTGTGCTAG`, the log fluorescence was 0.231 z-score.
`GCTCCAGGAAGCCTTGCCTGGTGCTAG` has a log fluorescence of -0.599 z-score.
For `GATGATATCAGTCTCGAGACGTGCTAG`, the log fluorescence was 0.268 z-score.
The log fluorescence of `TTATTTATAAATTATCTTTAAGTGCTA` is reported as 1.11 z-score.
The log fluorescence of `TCAATACTGATTTCCACACTGTGCTAG` is reported as 0.73 z-score.
The log fluorescence of `TCATGTCCCTATTTAAGACTGTGCTAG` is reported as 3.02 z-score.
`CACGGTTTCCTTCTCCTGACGTGCTAG` gave a log fluorescence of 2.44 z-score.
With `TCATACATGTGTTTAAGACTGTGCTAG` the log fluorescence was 0.0562 z-score.
For `GACGGACTGGGGAGTGGGGACGTGCTA`, the log fluorescence was -0.736 z-score.
`GACGAACTGGGGCATCGAGACGTGCTA` has a log fluorescence of -0.541 z-score.
`TACGGTTTCGGGTTTCGGGACGTGCTA` has a log fluorescence of 11.8 z-score.
`AACTAAAGAGACCACAAAAAGTGCTAG` gave a log fluorescence of 0.462 z-score.
`TTTGGTCTCGGTTTCGGTTAGTGCTAG` gave a log fluorescence of 11 z-score.
The log fluorescence of `TTAGAACTGAGACTGGATAAGTGCTAG` is reported as -0.246 z-score.
`TTTGGACTGCTTTTCCTTTAGTGCTAG` gave a log fluorescence of 0.714 z-score.
For `TCAGGTTTCCAATCAGCACTGTGCTAG`, the log fluorescence was 3.58 z-score.
`TTAGAACTGGGGGATCGATTAGTGCTA` gave a log fluorescence of 0.676 z-score.
`GACGAACTGAGCATCGAGACGTGCTAG` gave a log fluorescence of -0.434 z-score.
`GTCGGTCTCCTACTGCTGACGTGCTAG` has a log fluorescence of 0.218 z-score.
For `GACGATCTCAGGATCGAGACGTGCTAG`, the log fluorescence was -0.166 z-score.
`GACGGTTTCAGTTCCGAGACGTGCTAG` gave a log fluorescence of 3.17 z-score.
With `GTTCAAAGTCCTACGGCTTCGTGCTAG` the log fluorescence was 0.0154 z-score.

Set 5 — target: CCNE2, cyclin fold, Cln2 fusion (human); technique: yeast growth competition, sequencing; medium: yeast; notes: weak parent motif; relative to: not given; direction: higher = stronger binding
Starting sequence: MICAL3 docking peptide (human); LQLRRQLSFSEDS
Under “normalised enrichment score”, `Q6C` is recorded as 0.538.
`L3P`: “normalised enrichment score” 0.719.
`Q6D` — result for “normalised enrichment score”: -0.151.
Under “normalised enrichment score”, `E11S` is recorded as 0.484.
`S10G` — result for “normalised enrichment score”: 0.616.
Under “normalised enrichment score”, `R5Q` is recorded as -0.211.
For `R4M`, “normalised enrichment score” read -0.273.
For `D12T`, “normalised enrichment score” read 0.604.
`D12V` — result for “normalised enrichment score”: 0.713.
For `R5D`, “normalised enrichment score” read -0.114.
`F9K` — result for “normalised enrichment score”: 0.465.
For `D12I`, “normalised enrichment score” read 0.892.
For `S8H`, “normalised enrichment score” read 0.721.
For `S8M`, “normalised enrichment score” read 0.41.
`R5H` — result for “normalised enrichment score”: 0.0428.
Under “normalised enrichment score”, `E11T` is recorded as 0.496.
`R4D`: “normalised enrichment score” -0.102.
`S10V`: “normalised enrichment score” 0.367.
`S8E`: “normalised enrichment score” 0.123.
Under “normalised enrichment score”, `L7T` is recorded as 0.144.
Under “normalised enrichment score”, `F9P` is recorded as 0.0536.
`L7E` — result for “normalised enrichment score”: 0.354.
`D12S`: “normalised enrichment score” 0.381.
`R4L` — result for “normalised enrichment score”: 0.0935.
Under “normalised enrichment score”, `R5V` is recorded as 0.168.

For quick reference, copied from above (set 3):
With `ATGGACGA` the E-score was 0.131.
The E-score of `CACAAGTG` is reported as -0.0655.
The E-score of `CATGTGTC` is reported as -0.121.
`TGCCCAAA` gave an E-score of -0.0476.
The E-score of `AATCTACG` is reported as 0.0174.
`CCGATTCG` gave an E-score of 0.0674.
`CTCGCTCC` has an E-score of -0.172.
The E-score of `TGGAGACA` is reported as -0.0126.
The E-score of `AAGTTACT` is reported as 0.14.
